Results of several laboratories.
Lines come from different studies, so protocols differ. ± marks the error that the study gave.
UniProt P10635, sequence (whole entry, looked up): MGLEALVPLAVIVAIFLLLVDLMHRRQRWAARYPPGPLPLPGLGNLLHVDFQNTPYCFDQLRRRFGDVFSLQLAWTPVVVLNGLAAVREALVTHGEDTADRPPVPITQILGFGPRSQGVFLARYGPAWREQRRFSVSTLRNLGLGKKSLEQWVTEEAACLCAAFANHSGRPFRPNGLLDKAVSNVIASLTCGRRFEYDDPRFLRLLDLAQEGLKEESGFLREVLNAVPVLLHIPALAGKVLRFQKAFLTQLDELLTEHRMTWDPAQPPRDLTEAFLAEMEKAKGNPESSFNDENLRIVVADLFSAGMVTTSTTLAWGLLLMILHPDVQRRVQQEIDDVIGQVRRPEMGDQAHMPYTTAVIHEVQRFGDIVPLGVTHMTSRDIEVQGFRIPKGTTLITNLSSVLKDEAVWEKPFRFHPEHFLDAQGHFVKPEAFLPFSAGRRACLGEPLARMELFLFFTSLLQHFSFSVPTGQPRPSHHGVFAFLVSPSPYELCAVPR

| Structure (SMILES) | tested on | test | system | setting | scale | quantity | result |
| --- | --- | --- | --- | --- | --- | --- | --- |
| CC(C)OCCOCc1ccc(OCC(O)CN(N=O)C(C)C)cc1 (centres unmarked) | Salmonella typhimurium | Ames test | TA98 | 5 µg/plate, 30 % rat S9 | baseline: solvent control | revertant fold increase | 0.9 fold |
| CCOc1cc(-c2cc(CN3c4ccccc4C=Cc4ccccc43)on2)ccc1Cl | BJ | cytotoxicity |  |  |  | IC50 | > 30 µM |
| C=C(NC(=O)c1csc(-c2nc3c(cc2O)-c2nc(cs2)C(=O)NC(C(C)O)C(=O)NC(=C(C)OC)c2nc(cs2)C(=O)NC2c4nc(cs4)C(=O)NC(COC(=O)c4c5c6c(cccc6n4O)COC(=O)C(OC4CC(C)(O)C(N(C)C)C(C)O4)C2OC5)c2nc-3cs2)n1)C(N)=O (centres unmarked) |  |  | male Sprague-Dawley rats, plasma | intravenous infusion, 6 mg/kg |  | AUC(0-inf) | 1840 ng·h/mL |
| Cc1nc2cccc(OCC(C)(C)C(=O)NC(C)C)c2c(N)c1C(=O)[O-].[Na+] | human peripheral blood lymphocytes |  |  | 500 g/mL, 20 h, without S9 |  | relative mitotic index | 108% |
| O=C(Nc1cnccc1-c1ccc([18F])nc1)c1ccnc(NC(=O)C2CC2)c1 |  | PET imaging | FVB/NJ mice, both sexes, brain | intravenous, 60 min post-injection |  | median SUV | 0.048 |
| N#C[C@@H]1CC(F)(F)CN1C(=O)CNC(=O)c1ccnc2c(NC(=O)[C@H](CCCCNC(=O)CCOCCOCCOCCOCCOCCOCCNC(=O)CN3CCN(CC(=O)[O-])CCN(CC(=O)[O-])CCN(CC(=O)[O-])CC3)NC(=O)CCCc3ccc(I)cc3)cccc12.[177Lu+3] | U-87 MG tumour model |  | host not given, liver | 48 h, tumour-bearing |  | tracer uptake | 1.27 %ID/g |
| N#C[C@@H]1CCCN1C(=O)CNC(=O)c1ccnc2ccc(OCCCN3CCN(C(=O)CCc4ccc5c(c4)CN4CCN6CC(=O)[O][68Ga-]([O]C(=O)C4)([O]5)[O]c4ccc(CCC(=O)N5CCN(CCCOc7ccc8nccc(C(=O)NCC(=O)N9CCC[C@H]9C#N)c8c7)CC5)cc4C6)CC3)cc12 | U-87 MG tumour model |  | host not given, muscle | 2 h, tumour-bearing |  | tracer uptake | 2.14 %ID/g |
| COc1cccc(OC)c1-c1cc(C(=O)NC2(C(=O)O)C3CC4CC(C3)CC2C4)nn1-c1ccc(C(=O)N(C)CCOCCN(C)C(=O)[C@H](CCCCNC(=O)[C@H](CC(C)C)NC(=O)C2OC2C(=O)O)NC(=O)CN2CCN(CC(=O)[O-])CCN(CC(=O)[O-])CCN(CC(=O)[O-])CC2)cc1C(C)C.[177Lu+3] (mixture of isomers) | HT-29 tumour model |  | host not given, bone | 7 days, tumour-bearing |  | tracer uptake | 0.4 %ID/g |
| Nc1nc2cc(C(=O)c3ccc(F)cc3)ccc2[nH]1 | Salmonella typhimurium | Ames preincubation test | TA1535 | 19.5 µg per plate, 3 days, without S9 |  | revertants | 20.3 revertants per plate |
| CCN(CC)CC#CCNc1ccnc2cc(Cl)ccc12 | Salmonella typhimurium | mini-Ames test | TA100 | 1000.0 µg/well, without S9 |  | revertants per well | 13 |
| CNC(=O)C1CCCN(C(=O)C2CC3CCC2N3C(=O)[C@@H]2C[C@@H](O)CN2C(=O)NCc2cccc(Cl)c2F)C1 (mixture of isomers) | Cytochrome P450 2D6 (CYP2D6, Homo sapiens, UniProt P10635) | enzyme activity, inhibitor, time-dependent inhibition |  | 0.206 µM, preincubated with NADPH |  | dextrorphan formation | 106 ng/mL |
| O=C1C2CC3CC1CC(C(=O)N1CCN(c4ccc([N+](=O)[O-])c5ncccc45)CC1)(C3)C2 | Salmonella typhimurium | Ames test | TA98 | 0.13 µg/well, with S9 |  | mean revertant colonies | 7 colonies/well |
| COc1cccc(OC)c1-c1cc(C(=O)NC2(C(=O)O)C3CC4CC(C3)CC2C4)nn1-c1ccc(C(=O)NCCNC(=O)[C@H](CCCCNC(=O)[C@H](CC(C)C)NC(=O)C2OC2C(=O)O)NC(=O)CN2CCN(CC(=O)[O-])CCN(CC(=O)[O-])CCN(CC(=O)[O-])CC2)cc1C(C)C.[177Lu+3] (mixture of isomers) | HT-29 tumour model |  | host not given, stomach | 7 days, tumour-bearing |  | tracer uptake | 0.1 %ID/g |
| Brc1ccccc1-c1cc(CN2c3ccccc3C=Cc3ccccc32)on1 | BJ | cytotoxicity |  |  |  | IC50 | > 30 µM |
| CC(C)(O)c1ncc([S@](N)(=O)=NC(=O)Nc2c3c(cc4c2CCC4)CCC3)s1 |  | item: all system organ classes | healthy human subjects | oral, 100 mg, total |  | share of subjects with TEAEs | 83% |
| N#C[C@@H]1CCCN1C(=O)CNC(=O)c1ccnc2ccc(OCCCN3CCN(C(=O)CCc4ccc(O)c(CN5CCN6CC(=O)[O][Al-]([18F])([O]C(=O)C5)[O]c5ccc(CCC(=O)N7CCN(CCCOc8ccc9nccc(C(=O)NCC(=O)N%10CCC[C@H]%10C#N)c9c8)CC7)cc5C6)c4)CC3)cc12 (some centres unmarked) | U-87 MG tumour model |  | host not given, pancreas | 1 h, tumour-bearing |  | tracer uptake | 2.75 %ID/g |
| COc1cccc(OC)c1-c1cc(C(=O)NC2(C(=O)O)C3CC4CC(C3)CC2C4)nn1-c1ccc(C(=O)N(C)CCCN(C)CCCN(C)C(=O)[C@H](CCCCNC(=O)[C@H](CC(C)C)NC(=O)C2OC2C(=O)O)NC(=O)CN2CCN(CC(=O)[O-])CCN(CC(=O)[O-])CCN(CC(=O)[O-])CC2)cc1C(C)C.[177Lu+3] (mixture of isomers) | HT-29 tumour model |  | host not given, bone | 7 days, tumour-bearing |  | tracer uptake | 0.4 %ID/g |
| O=C1NC2(CC2)COc2ncc(F)cc2[C@H]2COCCN2c2ccn3ncc1c3n2 | Salmonella typhimurium | Ames test | TA102 | 500 µg/plate, 48 h, with: without S9 |  | revertant colonies | 360 ± 18 revertants/plate |
| N#C[C@@H]1CC(F)(F)CN1C(=O)CNC(=O)c1ccnc2c(NC(=O)CCOCCOCCOCCOCCOCCOCCNC(=O)[C@H](CCCCNC(=O)CN3CCN(CC(=O)[O-])CCN(CC(=O)[O-])CCN(CC(=O)[O-])CC3)NC(=O)CCCc3ccc(I)cc3)cccc12.[177Lu+3] | U-87 MG tumour model |  | host not given, muscle | 48 h, tumour-bearing |  | tracer uptake | 0.13 %ID/g |
| O=C(Nc1cnccc1-c1ccc([18F])cc1)c1ccnc(NC(=O)C2CC2)c1 |  | ex vivo gamma counting | FVB/NJ mice, both sexes, cecum | intravenous, 120 min, with: tariquidar 15 mg/kg iv |  | mean SUV | 1.93 |
| CN1CCCNC(=O)c2cccc(c2)C(=O)NCCCN(C)CCCNc2cccc3c2C(=O)c2cccc(c2C3=O)NCCC1 | HSC-2 | cell growth or viability, CCK-8 |  | 15 nM, 48 h |  | viability | 100% |
| C=CC(=O)Nc1cc(Nc2nccc(-c3cn(C)c4ccccc34)n2)c(OCC(F)(F)F)nc1N(C)CCN(C)C | human hepatocytes lot LTG | CYP1A2 enzyme activity, inducer |  | 1 µM | baseline: omeprazole 100 µM | induction | 5.98% |
| CC(C)Cc1ccc(C(C)C(=O)N[C@@H](CCCCNC(=O)CCOCCOCCOCCOCCOCCOCCNC(=O)CN2CCN(CC(=O)[O-])CCN(CC(=O)[O-])CCN(CC(=O)[O-])CC2)C(=O)Nc2cccc3c(C(=O)NCC(=O)N4CC(F)(F)C[C@H]4C#N)ccnc23)cc1.[177Lu+3] (some centres unmarked) | U-87 MG tumour model |  | host not given, pancreas | 1 h, tumour-bearing |  | tracer uptake | 7.45 %ID/g |

Repeated from above:
| Structure (SMILES) | tested on | test | system | setting | scale | quantity | result |
| --- | --- | --- | --- | --- | --- | --- | --- |
| CC(C)OCCOCc1ccc(OCC(O)CN(N=O)C(C)C)cc1 (centres unmarked) | Salmonella typhimurium | Ames test | TA98 | 5 µg/plate, 30 % rat S9 | baseline: solvent control | revertant fold increase | 0.9 fold |
| CCOc1cc(-c2cc(CN3c4ccccc4C=Cc4ccccc43)on2)ccc1Cl | BJ | cytotoxicity |  |  |  | IC50 | > 30 µM |
